# Published values pooled from the literature.
# Numbered parts are unrelated; each lists some results of a single study.

# Sample 1 — method: protein-binding microarray; form: double-stranded DNA, one strand shown; matrix: in vitro; concentration: 2540 nM top; notes: 60-bp whole probe; with: salmon DNA 0.4 mg/ml; relative to: random background probes; direction: higher = stronger binding; constant ends, left off below: GCCTAGCAC … GTCTTGATTCGCTTGACGCTGCTG
# Target: Interferon regulatory factor 3, full length, phosphomimetic (IRF3, Homo sapiens, UniProt Q14653, residues 1-427, S386D/S396D/S398D/S402D/T404D/S405D)
# Target sequence (chain): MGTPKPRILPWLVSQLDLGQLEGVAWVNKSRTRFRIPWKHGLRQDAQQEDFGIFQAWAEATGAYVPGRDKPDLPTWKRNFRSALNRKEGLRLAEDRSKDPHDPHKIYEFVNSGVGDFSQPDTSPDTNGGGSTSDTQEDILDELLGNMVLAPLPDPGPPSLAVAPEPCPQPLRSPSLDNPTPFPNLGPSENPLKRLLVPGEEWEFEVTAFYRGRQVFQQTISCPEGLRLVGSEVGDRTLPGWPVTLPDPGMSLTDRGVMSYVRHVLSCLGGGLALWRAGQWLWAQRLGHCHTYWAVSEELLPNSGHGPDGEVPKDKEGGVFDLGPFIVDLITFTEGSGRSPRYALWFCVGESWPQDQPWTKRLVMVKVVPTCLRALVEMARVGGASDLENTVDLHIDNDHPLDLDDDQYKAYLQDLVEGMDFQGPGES
Strand,fitted relative affinity [z-score]
TTAGATATCAGACTGGATTGGTGCTAG,-0.0829
GACGATATCGGGTCTCGAGACGTGCTA,0.491
GACGGACTGCTCCTCCTGACGTGCTAG,-0.353
GACGATTTCGGGTTTCGAGACGTGCTA,2.87
GATAATTTATAAATAAAAAAGTGCTAG,0.00741
TTAGATATCGGGGATCGATTAGTGCTA,-0.287
TCATCTGTCCGTGCTCAGACTGTGCTA,0.468
GACAGTCTCGGTCTCGGGACGTGCTAG,1.21
TTAGATATCGACACTGGGTTAGTGCTA,-0.336
TTAGTACTGGACTTTCGGTTAGTGCTA,1.29
TTAGATTTCAGTTCCGATCAGTGCTAG,3.16
TCACATTTCCCTTGCCGACTGTGCTAG,1.78
GGCGGTATCGGGTATCGGGACGTGCTA,1.74
GACGATTTCAGGTCCGAGACGTGCTAG,1.31
TTAGATATAGGGACTGGATTAGTGCTA,-0.538
TACGGTATCGACTTTCGGGACGTGCTA,1.26
TTAGGATTGGGTATCGGTTAGTGCTAG,0.819
GACGGGATCGACACTGGGGACGTGCTA,-0.462
TTAGATTTCGGGTATCGACTAGTGCTA,1.28

# Sample 2 — method: RNA Bind-n-Seq; form: RNA; matrix: in vitro; concentration: 200 nM; notes: whole 134-nt RNA, ends assumed; with: 150 mM LiCl; relative to: input library; direction: higher = stronger binding; library: 7-deaza-guanosine replaces G
# Target: Ras GTPase-activating protein-binding protein 1, full length (G3BP1, Homo sapiens, UniProt Q13283)
# UniProt Q13283, sequence (whole entry, looked up): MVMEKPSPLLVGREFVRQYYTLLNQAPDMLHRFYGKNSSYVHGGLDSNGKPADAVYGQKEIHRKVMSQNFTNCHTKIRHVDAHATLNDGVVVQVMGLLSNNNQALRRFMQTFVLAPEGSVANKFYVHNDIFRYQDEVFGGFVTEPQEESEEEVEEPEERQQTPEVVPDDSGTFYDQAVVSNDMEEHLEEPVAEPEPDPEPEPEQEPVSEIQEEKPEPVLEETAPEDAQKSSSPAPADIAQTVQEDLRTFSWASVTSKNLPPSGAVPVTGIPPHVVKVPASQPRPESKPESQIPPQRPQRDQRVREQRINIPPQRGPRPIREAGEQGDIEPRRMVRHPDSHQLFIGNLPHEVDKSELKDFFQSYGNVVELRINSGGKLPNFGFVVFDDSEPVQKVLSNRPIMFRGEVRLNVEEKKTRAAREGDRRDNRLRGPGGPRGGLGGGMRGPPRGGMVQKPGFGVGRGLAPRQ
# Constant ends, left off below: GGGAGUUCUACAGUCCGACGAUC … UGGAAUUCUCGGGUGUCAAGG
Strand,log2 enrichment
CAAAGACAACACGCACCCACACAGACACAGAGGGAAGGGGUUGGGAUGGGGACAGGGUGCACAGCAGGGCGGGGUAGGACCCCAGCCCCU,0.471
CCUGUGCUACACAUCGUAUGUACCGAAUCGGGUUUUUUGGGGUUUUUUGGGUUUUUUGGGAAAGUAUUAUGUUACGCCGUUCGGAUCUGC,0.396
CUGUGCUACACAUCGUAUGUACCGAAUCGGGGAAAAAAAGGGGAAAAAAAGGGAAAAAAAGGAAAGUAUUAUGUUACGCCGUUCGGAUCU,0.291
AAGUCCUGUGCUACACAUCGUAUGUACCGAAUCGGGGAGGGGUGGGGAAAAAGGGGAAAGUAUUAUGUUACGCCGUUCGGAUCUGCACUU,0.236
CAAGUCCUGUGCUACACAUCGUAUGUACCGAAUCGGGUUUGGUUUGGGGUUUGGGGAAAGUAUUAUGUUACGCCGUUCGGAUCUGCACUU,-1.42
UAACUUUAGAGGAGGAUCUGACGGAUAUGGCAGUGGACGUGGAUUUGGGGAUGGCUAUAAUGGGUAUGGAGGAGGACCUGGAGGUGGCAA,0.0557
CAAGUCCUGUGCUACACAUCGUAUGUACCGAAUCGGGAGGGAAAAAGGGAAAGGGAAAGUAUUAUGUUACGCCGUUCGGAUCUGCACUUC,-0.0265
GUCCUGUGCUACACAUCGUAUGUACCGAAUCGGGUUUGGGAAAAAGGGUUUUUUUGGGAAAGUAUUAUGUUACGCCGUUCGGAUCUGCAC,-1.16

# Sample 3 — method: protein binding microarray; form: double-stranded DNA, one strand shown; matrix: in vitro; concentration: not given; relative to: not given; direction: higher = stronger binding
# Target: Histone acetyltransferase KAT6A, both winged helices, GST fusion (KAT6A, Homo sapiens, UniProt Q92794, residues 1-181)
# Notes: 8-mer, flanks averaged, mean of 2 arrays, mostly near background
# Construct (chain): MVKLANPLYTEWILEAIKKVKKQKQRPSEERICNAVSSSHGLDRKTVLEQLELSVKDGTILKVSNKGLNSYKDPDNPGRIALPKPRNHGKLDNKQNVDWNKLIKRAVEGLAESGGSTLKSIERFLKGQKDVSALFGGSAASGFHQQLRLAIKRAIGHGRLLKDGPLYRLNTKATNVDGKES
Strand,E-score
CATGACGG,0.208
AAACCTTA,-0.0286
GGCGATGA,0.12
AAACCTGT,-0.153
CGACTACG,0.0837
CCTTGAAG,-0.115
GTTCATTA,-0.0782
CCTTCCAA,-0.204
GCGGCGCA,0.337
GCAGAGCA,-0.0788
GTGAGCAA,-0.14
CGTCGTTA,0.0309
TCGGCAAA,0.15
TAGTAGCA,0.0119
CACCGCAA,0.126
CACCCACC,-0.186
AACTCACT,-0.172
AGAGTGAA,-0.263
CCGTCTAA,0.195
GGGCGACA,0.182
CGGCGCTC,0.302
CGGCTGAC,0.178
GGAACTCA,-0.107

# Sample 4 — method: RNA Bind-n-Seq; form: RNA; matrix: in vitro; concentration: 365 nM; relative to: no-protein control; direction: higher = stronger binding
# Target: RNA binding protein fox-1 homolog 2, RRM domain, GST-SBP tag (RBFOX2, Homo sapiens, UniProt O43251-10, residues 100-194)
# Notes: natural RNA segment, single round, ends assumed
# Constant ends, left off below: GGGAGUUCUACAGUCCGACGAUC … UGGAAUUCUCGGGUGCCAA
# Residues (chain): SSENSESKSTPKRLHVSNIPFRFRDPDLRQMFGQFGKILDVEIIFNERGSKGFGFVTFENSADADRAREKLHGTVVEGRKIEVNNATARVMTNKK
Strand,RBNS enrichment (R)
UGAGGCCGAGACCUUGAUGGGAAGAGGAUGCUCCCUUGUUACAAAUAAAGAAGGGCAGUGUGAACCCAGGCAGUUGAUGUCAUGAUUCCAUGUGGCCAGUCCUGUGGGAC,0.447
AGUGAGGUUAAAUGCAUUCAGGAGGUUGUUUGUUUCUUCUAUCUAGUUUUAGAAUAAUAUUUCUUCGGCAAACCCUGCUAACUGCGGUUCACCCUUGAAAACGUUAAUCU,0.297
GGCCUUUGAGAAAGGGUAGAAUUCUGGCUGGUAGAGCAGGUGAGAUGGGACAUUCCAAAGAACAGCCUGAGCCAAGGCCUAGUGGUAGUAAGAAUCUAGCAAGAAUUGAG,0.512
GUGUCCCCAAGAGUUCCUUGUCACCUCUGUGGUGGGAAGGAAAGUAUGGUUUCCCCAGGUCUGAACUGGGUACCCCCAGGGUGUUUACUAACUCUGGUGAAGGGUUUGGA,0.286
UACAUCAGGUCAGCACAGAUUAACUCAGUUACGUGUUAUACCUUCAAGACGCUAGACAUUCCAGAAUUAUUUUCCUUGGCCAUCCAAGUGAAGUAGAAGUAGAUUGUUGG,0.276
CACAGUUUUAAGAGUUGUAUGAACAUGGAGAGGACUUUUGGUUUUUAUAUUUCUCGUAUUUAAUAUGGGUGAACACCAACUUUUAUUUGGAAUAAUAAUUUUCCUCCUAA,0.838
AUGGGACACCCAACACUUUUUCCAUUUCUUCAGAGGGAAACUCAGAUGUCCAAACUAAUUUUAACAAACGCAUUAAGAGGUUUAUUUGGGUACAUGGCCCGCAGUGGCUU,0.349
UUCUCCAUAAUUUGGUCUCCUCUUGGGUUUGGGGAUAGUUCUAAUUUGGAGAGCUGUUUUAUCUCCAAUGGCUGUGACUCAGUGCAAGGAUUCCACUCAGAACCUCUUUC,0.548

# Excerpt of the above (sample 1):
Strand,fitted relative affinity [z-score]
GACGGACTGCTCCTCCTGACGTGCTAG,-0.353
GACGATTTCGGGTTTCGAGACGTGCTA,2.87
GATAATTTATAAATAAAAAAGTGCTAG,0.00741
TTAGATATCGGGGATCGATTAGTGCTA,-0.287
TCATCTGTCCGTGCTCAGACTGTGCTA,0.468
GACAGTCTCGGTCTCGGGACGTGCTAG,1.21
TTAGATATCGACACTGGGTTAGTGCTA,-0.336
TTAGTACTGGACTTTCGGTTAGTGCTA,1.29
